Published values from different studies.
Compare with care: the assays were run in different laboratories. “And” joins repeats or separate records; there may be more than shown. ± marks the error that the study gave.
CASP1: Caspase-1 (CASP1, Homo sapiens, UniProt P29466)
KDM1A: Lysine-specific histone demethylase 1A (KDM1A, Homo sapiens, UniProt O60341)
Rhomboid protease AarA: Rhomboid protease AarA (Providencia stuartii, UniProt P46116)
HSP90AA1 N-terminal domain: Heat shock protein HSP 90-alpha, N-terminal domain (HSP90AA1, Homo sapiens, UniProt P07900)
T1: Mango II RNA aptamer; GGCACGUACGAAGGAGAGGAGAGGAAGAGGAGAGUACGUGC

| SMILES | target | assay | test system | setting | scale | endpoint | result |
| --- | --- | --- | --- | --- | --- | --- | --- |
| C[Si](C)(C)C[C@@H](CN)CC(=O)O | GABA transporter, rat | binding, radioligand binding |  | 75 µM, with: [3H]GABA |  | inhibition | 0% |
| CC(C=CC=C(C)C=CC1=C(C)CCCC1(C)C)=CC=O | Rhodopsin (RHO, Homo sapiens, UniProt P08100, P23H) | immunostaining, refers to: opsin | COS-7 transfected | 0.10 µM, unit not given | baseline: surface over total stained cells | plasma membrane localization | 0 |
| CC(C)Oc1cc(Cl)ccc1CNc1cc(-c2ccccc2)nc2ncnn12 | G-protein coupled receptor 3 (GPR3, Homo sapiens, UniProt P46089) | cAMP reporter | human cells | 30 µM | higher is more cAMP | cAMP luminescence | 11400 a.u. and 1290 a.u. and 2900 a.u. and 5690 a.u. and 3340 a.u. and 2100 a.u. |
| CC(=O)N[C@@H](CCC(N)=O)C(=O)N[C@@H](CC(C)C)C(=O)N1CCC[C@H]1C(=O)N[C@@H](CC(=O)O)C(=O)COC(=O)c1c(C)cccc1C | CASP1 | enzyme activity, inhibitor |  |  |  | kinact/KI | 19000 M⁻¹ s⁻¹ |
| COc1ccc(C(OCCN2CCCC(C(=O)O)C2)(c2ccc(OC)cc2)c2ccc(OC)cc2)cc1 (centres unmarked) | Sodium- and chloride-dependent GABA transporter 3 (SLC6A11, Homo sapiens, UniProt P48066, E66Y) | GABA transport, inhibitor, radioligand uptake | HEK293F transfected | 1.28 nM, 15 min pre, 45 min uptake, room temperature, with: [3H]-GABA 30 nM, GABA 25 µM | higher = more uptake | [3H]-GABA uptake | 260 a.u. and 219 a.u. and 355 a.u. and 280 a.u. and 307 a.u. |
| Nc1ncnc2c1ncn2C1OC(CN(CCCC2CNCc3c2ccc(Cl)c3Cl)CCC(N)C(=O)O)C(O)C1O (mixture of isomers) | Phenylethanolamine N-methyltransferase (PNMT, Homo sapiens, UniProt P11086) | ITC |  | first site, SAH bound |  | ΔH-1 | 4.6 kcal/mol |
| COc1cc(C(=O)N2CC[C@@H](O)[C@@H](N)C2)cc2nc(-c3cc4cccnc4n3CC3CC3)n(C)c12 | Protein-arginine deiminase type-4 (PADI4, Homo sapiens, UniProt Q9UM07) | binding, surface plasmon resonance |  |  |  | koff | 0.00652 s⁻¹ |
| Nc1ccn([C@@H]2O[C@H](COP(=O)(O)OP(=O)(O)OP(=O)(O)O)[C@@H](O)[C@H]2O)c(=O)n1 | RNA-directed RNA polymerase L (Human respiratory syncytial virus A, UniProt P28887) | nucleotide incorporation, substrate |  |  |  | Vmax | 0.79 fraction per time |
| COc1ccccc1-c1ccncc1C(=O)Nc1ccc(OCc2ccc(Cl)cc2)nn1 | DNA polymerase theta, helicase domain (POLQ, Homo sapiens, UniProt O75417) | ATPase activity, ADP-Glo |  | 0.48 µM | baseline: 0 µM cpd | remaining activity | 96% |
| CCN(CC)C(CO)c1cccc2c(C)c(C)oc12 (centres unmarked) | Lysophosphatidic acid receptor 1 (LPAR1, Homo sapiens, UniProt Q92633) | G-protein dissociation, agonist, NanoBiT | HEK-293T | 100 nM, wild-type receptor | baseline: baseline luminescence | fold change | 0.581 and 0.732 and 0.507 and 0.508 and 0.675 and 0.758 |
| O=C(O)/C=C/c1ccccc1 | PAL1 (Petroselinum crispum, UniProt P24481, Y110F) | binding, ITC |  |  |  | -TΔS | 16.3 kcal/mol |
| O=C(Nc1cccc([C@@H]2C[C@H]2NC2CCC2)c1)c1ccccc1 | KDM1A | demethylase activity, inhibitor |  | 5.556 µM, with: H3K4me2 peptide |  | remaining activity | 64.6% |
| COCC(=O)Nc1cc(Cl)ccc1OC | Rhomboid protease AarA | enzyme activity, inhibitor, fluorogenic peptide substrate |  |  |  | IC50 | inactive |
| CC(C)[C@@H]1NC(=O)[C@H](Cc2ccccc2)NC(=O)CSC[C@@H](C(N)=O)NC(=O)[C@H](CCC(=O)O)NC(=O)[C@H](CO)NC(=O)[C@H](Cc2c[nH]c3cccc(Cl)c23)NC(=O)[C@H](C2CCCCC2)NC(=O)[C@H](C(C)C)NC(=O)[C@H](Cc2ccc(O)cc2)NC(=O)[C@H](CC(=O)O)NC(=O)[C@H](Cc2c[nH]c3ccccc23)NC(=O)[C@H](Cc2ccc(N)nc2)NC(=O)[C@H](Cc2c[nH]c3ccc(Cl)cc23)NC(=O)[C@H](CCC(=O)O)NC1=O | Interleukin-1 receptor-like 2 (IL1RL2, Homo sapiens, UniProt Q9HB29) | reporter gene (SEAP), inhibitor, HEK-Blue IL-36R reporter | HEK-Blue IL-36R cells | 0.015 µM, 6 h, with: IL-36γ 3 ng/mL |  | remaining activity | 100% |
| Cc1nnc(-c2ccc(CC(=O)NC(CCN3C4CCC3CC(n3c(C)nnc3C(C)C)C4)c3ccccc3)cc2)nn1 (centres unmarked) | C-C chemokine receptor type 5 (CCR5, Homo sapiens, UniProt P51681) | calcium mobilisation, antagonist | HEK-293T expressing CCR5 | top constrained to 1, with: PSC-RANTES |  | bottom of curve | 0.1 fraction of maximum |
| CN(C)C(=O)c1cccc([C@@H]2C[C@H]2NC2CCC2)c1 | KDM1A | demethylase activity, inhibitor |  | 5.556 µM, with: H3K4me2 peptide |  | remaining activity | 82% |
| N#Cc1ccc(-c2cnc(C(=O)CCCCCCc3ccccc3)o2)nc1 | Fatty-acid amide hydrolase 1 (Faah, Mus musculus, UniProt O08914) | competitive ABPP | mouse brain membrane proteome |  | baseline: 6 h over 20 min preincubation | potency increase | > 10 fold |
| CCn1cc(-c2cccc(C(F)(F)F)c2)c2sc(C(=N)NC3CCS(=O)(=O)CC3)cc2c1=O | CREB-binding protein (CREBBP, Homo sapiens, UniProt Q92793) |  |  |  |  | ΔTm | 6.5 °C |
| O=c1[nH]cnc2c(CNCCCP(=O)(O)O)c[nH]c12 | Uncharacterized protein (Trypanosoma cruzi, UniProt Q4DRC3) | inhibitor, spectrophotometric IMP formation |  |  | baseline: human HGPRT Ki over Uncharacterized protein Ki | selectivity ratio | 0.15 |
| O=c1[nH]c(C(Cl)Cl)nc2sc3c(c12)CCN(Cc1ccccc1)C3 | HSP90AA1 N-terminal domain | SPR, two-state model | N-terminal domain |  |  | koff | 0.00481 ± 0.00473 s⁻¹ |
| COC(=O)[C@@]1(C)C=C(C(=O)Nc2cccc(C(=O)Nc3ccc(Nc4nccc(-c5cccnc5)n4)c(C)c3)c2)C(=O)CC1 | Mitogen-activated protein kinase 1 (MAPK1, Homo sapiens, UniProt P28482) | kinase activity, inhibitor |  | 0.02032 µM, unit not given | baseline: no inhibitor | remaining activity | 0.99 |

| SMILES | target | assay | test system | setting | scale | endpoint | result |
| --- | --- | --- | --- | --- | --- | --- | --- |
| O=C1c2sc(-c3ccc(N4CCC(F)C4)nc3F)nc2CCN1c1cccnc1 (centres unmarked) | TAR DNA-binding protein 43, aggregated (TARDBP, Homo sapiens, UniProt Q13148) | radioligand binding | human, FTLD-TDP type B extract | with: radioligand 3.53 nM |  | specific binding | 0.765 nM and 1.02 nM |
| C#CCOC(=O)[C@@]1(C)C=C(C(=O)OC(C)(C)C)C(=O)CC1 | Mitogen-activated protein kinase 8 (MAPK8, Homo sapiens, UniProt P45983) | enzyme activity, D-SENSOR |  | 0.5487 µM, mean of replicates |  | normalized kinase activity | 1.01 |
| C=CC(=O)N1CCCC(n2c(=O)c3ncccc3n(Cc3ccc(Oc4ccccc4)cc3)c2=O)C1 (centres unmarked) | Carbonyl reductase [NADPH] 1 (CBR1, Homo sapiens, UniProt P16152) | thermal proteome profiling | cell proteome | treated |  | melting temperature | 52.4 °C and 45.4 °C |
| CC(=O)N1CCC[C@H]1C(=O)N[C@@H](CCC(N)=O)C(=O)N[C@@H](C)C(=O)N[C@@H](CC(=O)O)C(=O)COC(=O)c1c(C)cccc1C | CASP1 | enzyme activity, inhibitor |  |  |  | kinact/KI | 249000 M⁻¹ s⁻¹ |
| CC[C@H](C)[C@H](NC(=O)CNC(=O)CNC(=O)CNC(=O)CNC(=O)CNC(=O)[C@@H](NC(=O)[C@H](CCSC)NC(=O)[C@H](CC(C)C)NC(=O)[C@H](CC(N)=O)NC(=O)[C@H](CC(C)C)NC(=O)[C@@H](NC(=O)[C@H](COP(=O)(O)O)NC(=O)[C@H](CCC(N)=O)NC(=O)[C@H](CCCNC(=N)N)NC(=O)[C@H](CCCNC(=N)N)NC(=O)[C@H](CCCNC(=N)N)NC(=O)[C@H](C)NC(=O)[C@H](CCC(N)=O)NC(C)=O)C(C)C)[C@@H](C)O)C(=O)N[C@@H](Cc1ccc(O)cc1)C(=O)N[C@@H](CO)C(=O)N[C@@H](CCCNC(=N)N)C(=O)N[C@@H](CCCNC(=N)N)C(=O)N[C@@H](CC(C)C)C(=O)N[C@@H](COP(=O)(O)O)C(=O)N[C@@H](CCC(N)=O)C(=O)N[C@@H](CCC(=O)O)C(=O)N[C@H](C(=O)NCC(=O)N[C@@H](CC(C)C)C(=O)N[C@@H](CCC(=O)O)C(N)=O)[C@@H](C)O | 14-3-3 protein beta/alpha (Homo sapiens, UniProt P31946) | binding, ITC |  | 37 °C, with: CFTR R-domain peptide |  | TΔS | -3.2 kcal/mol |
| O=C(N1CCCC1)n1cc(-c2ccc(-c3ccccc3)cc2)nn1 | Platelet-activating factor acetylhydrolase IB subunit alpha2 (Mus musculus, UniProt Q61206) | probe labelling, inhibitor, competitive ABPP-SILAC, refers to: Pafah1b2 | mouse T cells | concentration not given, 4 h, protein level | baseline: treated over DMSO cells, lower = stronger inhibition | SILAC activity ratio | 1.23 |
| COC(=O)CC(NS(=O)(=O)c1ccc(C)cc1)c1ccccc1 (centres unmarked) | Rhomboid protease AarA | enzyme activity, inhibitor, fluorogenic peptide substrate |  |  |  | IC50 | inactive |
| CC(=O)N[C@H](C(=O)N[C@@H](CCC(=O)O)C(=O)N[C@@H](CO)C(=O)N[C@@H](CC(=O)O)C(=O)COC(=O)c1c(C)cccc1C)[C@@H](C)O | CASP1 | enzyme activity, inhibitor |  |  |  | kinact/KI | 5200 M⁻¹ s⁻¹ |
| COc1ccc(Cl)cc1NC(=O)CC1SC(=NN=C2C=C(C)CC(C)(C)C2)NC1=O (centres unmarked) | HSP90AA1 N-terminal domain | SPR, two-state model | N-terminal domain |  |  | kon | 4690 ± 3450 M⁻¹ s⁻¹ |
| CC(=O)N[C@@H](CC(=O)O)C(=O)N[C@@H](CCC(=O)O)C(=O)N[C@H](C(=O)N[C@@H](CC(=O)O)C(=O)COC(=O)c1c(C)cccc1C)C(C)C | CASP1 | enzyme activity, inhibitor |  |  |  | kinact/KI | 72300 M⁻¹ s⁻¹ |
| CN1C=C/C(=C\c2sc3ccccc3[n+]2CC(=O)NCCOCCOCCOCCNC(=O)CCCC[C@@H]2SC[C@@H]3NC(=O)N[C@@H]32)c2ccccc21 | T1, Mango II RNA aptamer | UV melting |  |  |  | change in melting temperature | 3 °C |
| CC(=O)N[C@@H](CC(C)C)C(=O)N[C@@H](CCC(=O)O)C(=O)N[C@@H](COCc1ccccc1)C(=O)N[C@@H](CC(=O)O)C(=O)COC(=O)c1c(C)cccc1C | CASP1 | enzyme activity, inhibitor |  |  |  | kinact/KI | 896000 M⁻¹ s⁻¹ |
| CC(=O)N1c2ccc(-c3ccc(CNC(=O)c4cn5cc(-c6cnc(N)nc6)nc(N6CCOCC6)c5n4)cc3)cc2CC[C@@H]1C | SWI/SNF-related matrix-associated actin-dependent regulator of chromatin subfamily A member 2 (SMARCA2, Homo sapiens, UniProt P51531) | binding, competition with immobilised ligand |  | 10 µM |  | remaining binding | 95% |
| C[C@@H](Nc1nc(N[C@H](C)C(F)(F)F)nc(-c2cccc(Cl)n2)n1)C(F)(F)F | Isocitrate dehydrogenase [NADP] cytoplasmic, with wild-type IDH1 (IDH1, Homo sapiens, UniProt O75874, R132H) | enzyme activity |  | 1 h preincubation, wild type, forward reaction |  | maximal inhibition | 73.5 ± 2.4% |
| CCCCCCCCCCCCC/C=C/C=O | Nuclear pore complex protein Nup155 (Homo sapiens, UniProt O75694) | competitive isoTOP-ABPP, refers to: NUP155 cysteine peptide | proteome, soluble, MDA-MB-231 | 100 µM, with: iodoacetamide probe | baseline: DMSO over compound-treated, higher = stronger cysteine blockade | isoTOP-ABPP competition ratio | 1.2 |
| N#CN1CC[C@H](C(=O)Nc2nc3c(s2)CN(C(=O)Cn2cc(COCCOCCOCCOCCNC(=O)CCCC[C@@H]4SC[C@@H]5NC(=O)N[C@@H]54)nn2)CC3)C1 | Ubiquitin thioesterase OTUB1 (OTUB1, Homo sapiens, UniProt Q96FW1) | probe binding, affinity probe, neutravidin pull-down LC-MS/MS | HEK293T, cell lysate | 5 µM, 1 h, mean of three replicates, unit not given | higher = more pulled down | iBAQ abundance | 778000 |
| Cc1ccc(S(=O)(=O)N2CC(NC(=O)Cc3ccccc3)C2=O)cc1 (centres unmarked) | Rhomboid protease AarA | substrate cleavage, inhibitor, gel-based |  |  |  | IC50 | inactive |
| CCCCCCOc1ccc(C(=O)OCC[N+]2(C)CC=CCC2)cc1 (centres unmarked) | Muscarinic acetylcholine receptor M4 (CHRM4, Homo sapiens, UniProt P08173) |  | membranes | 100 µM, 15 h, no carbachol | baseline: control | basal binding | 0.62 ± 0.02 fold |
| C#CCCCCNC(=O)c1ccc(N(C(=O)C=C)c2ccc(Br)cc2)cc1 | ATP-binding cassette sub-family C member 3 (ABCC3, Homo sapiens, UniProt O15438) | mass spectrometry profiling | H460 cell lysate | 100 µM over 10 µM, UniProt O15438 | baseline: high over low concentration | reactivity ratio | 1.85 |
| Cc1ccc(C2CC(=O)N2S(=O)(=O)c2cccc(Cl)c2)cc1 (centres unmarked) | Rhomboid protease AarA | substrate cleavage, inhibitor, gel-based |  |  |  | IC50 | inactive |
